{"data": "Assay results from different studies", "note": "Every numbered part comes from another study and shows a few of its results, in no order. Values joined by “and” are separate records of one study, mostly repeats; a detail may differ.", "UniProt Q15835, sequence (whole entry, looked up)": "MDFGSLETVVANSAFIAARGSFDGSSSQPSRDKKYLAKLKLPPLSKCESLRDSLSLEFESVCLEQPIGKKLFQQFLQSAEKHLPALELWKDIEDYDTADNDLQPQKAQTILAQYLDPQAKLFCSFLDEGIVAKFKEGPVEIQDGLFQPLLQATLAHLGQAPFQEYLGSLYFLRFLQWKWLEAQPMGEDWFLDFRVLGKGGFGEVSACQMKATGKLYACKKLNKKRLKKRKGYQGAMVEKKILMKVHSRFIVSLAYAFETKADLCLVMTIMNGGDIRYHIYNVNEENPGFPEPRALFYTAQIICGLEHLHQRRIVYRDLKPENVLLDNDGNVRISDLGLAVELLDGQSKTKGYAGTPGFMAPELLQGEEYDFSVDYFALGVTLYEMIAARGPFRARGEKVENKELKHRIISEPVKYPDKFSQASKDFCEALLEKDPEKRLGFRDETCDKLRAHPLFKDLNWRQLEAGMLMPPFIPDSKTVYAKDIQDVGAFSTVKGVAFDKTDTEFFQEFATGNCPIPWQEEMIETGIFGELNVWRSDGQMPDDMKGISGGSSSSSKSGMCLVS", "UniProt Q9BX84, sequence (whole entry, looked up)": "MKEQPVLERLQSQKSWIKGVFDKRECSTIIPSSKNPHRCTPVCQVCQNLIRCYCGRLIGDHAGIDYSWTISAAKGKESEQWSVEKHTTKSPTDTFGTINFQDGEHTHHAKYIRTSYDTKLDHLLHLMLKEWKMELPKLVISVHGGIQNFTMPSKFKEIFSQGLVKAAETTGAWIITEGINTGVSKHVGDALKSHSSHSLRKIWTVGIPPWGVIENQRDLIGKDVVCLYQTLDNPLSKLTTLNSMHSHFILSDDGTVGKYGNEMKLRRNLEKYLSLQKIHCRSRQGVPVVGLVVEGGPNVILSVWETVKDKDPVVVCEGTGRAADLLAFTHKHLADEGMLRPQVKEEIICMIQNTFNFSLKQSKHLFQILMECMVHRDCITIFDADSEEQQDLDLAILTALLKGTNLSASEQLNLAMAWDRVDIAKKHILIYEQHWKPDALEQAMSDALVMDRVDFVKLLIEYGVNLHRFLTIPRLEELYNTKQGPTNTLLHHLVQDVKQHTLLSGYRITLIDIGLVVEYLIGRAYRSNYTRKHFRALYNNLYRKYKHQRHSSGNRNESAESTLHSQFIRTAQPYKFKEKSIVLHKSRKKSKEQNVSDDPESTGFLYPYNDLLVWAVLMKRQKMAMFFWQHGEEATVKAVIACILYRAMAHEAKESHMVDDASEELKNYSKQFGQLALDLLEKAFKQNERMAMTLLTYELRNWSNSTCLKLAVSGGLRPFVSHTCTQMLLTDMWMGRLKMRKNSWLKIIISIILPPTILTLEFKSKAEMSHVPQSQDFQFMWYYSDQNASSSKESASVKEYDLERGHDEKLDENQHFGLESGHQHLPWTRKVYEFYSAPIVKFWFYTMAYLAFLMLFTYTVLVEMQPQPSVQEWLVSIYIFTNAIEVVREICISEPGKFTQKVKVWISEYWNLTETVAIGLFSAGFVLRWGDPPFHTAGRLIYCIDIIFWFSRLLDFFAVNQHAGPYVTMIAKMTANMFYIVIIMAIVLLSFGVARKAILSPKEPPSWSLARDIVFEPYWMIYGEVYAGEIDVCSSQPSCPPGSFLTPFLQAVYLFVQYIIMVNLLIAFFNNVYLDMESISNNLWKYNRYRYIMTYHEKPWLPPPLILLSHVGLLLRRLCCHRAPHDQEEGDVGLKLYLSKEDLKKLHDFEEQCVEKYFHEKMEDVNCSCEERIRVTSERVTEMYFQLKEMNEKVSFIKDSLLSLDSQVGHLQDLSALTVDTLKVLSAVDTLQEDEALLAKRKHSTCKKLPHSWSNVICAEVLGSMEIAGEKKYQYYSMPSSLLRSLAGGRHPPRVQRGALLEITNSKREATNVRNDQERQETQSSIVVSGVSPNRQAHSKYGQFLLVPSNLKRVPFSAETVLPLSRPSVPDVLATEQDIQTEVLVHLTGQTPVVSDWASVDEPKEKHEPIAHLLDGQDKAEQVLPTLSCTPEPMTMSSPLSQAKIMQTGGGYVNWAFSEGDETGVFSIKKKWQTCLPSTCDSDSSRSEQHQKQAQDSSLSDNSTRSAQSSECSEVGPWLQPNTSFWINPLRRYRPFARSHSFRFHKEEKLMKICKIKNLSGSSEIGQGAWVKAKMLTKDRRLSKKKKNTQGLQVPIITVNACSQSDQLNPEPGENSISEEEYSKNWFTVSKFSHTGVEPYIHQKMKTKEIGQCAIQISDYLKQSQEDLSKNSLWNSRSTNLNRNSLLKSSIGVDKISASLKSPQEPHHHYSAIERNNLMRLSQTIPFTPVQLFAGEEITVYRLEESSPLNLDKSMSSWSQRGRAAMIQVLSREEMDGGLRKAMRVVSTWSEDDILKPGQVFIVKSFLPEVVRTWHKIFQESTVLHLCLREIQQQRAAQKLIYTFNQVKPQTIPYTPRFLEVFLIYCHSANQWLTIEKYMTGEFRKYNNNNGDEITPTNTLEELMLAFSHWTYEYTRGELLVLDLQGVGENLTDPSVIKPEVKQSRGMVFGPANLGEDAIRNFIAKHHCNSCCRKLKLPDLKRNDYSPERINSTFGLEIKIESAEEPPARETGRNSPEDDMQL", "UniProt Q9UK32, sequence (whole entry, looked up)": "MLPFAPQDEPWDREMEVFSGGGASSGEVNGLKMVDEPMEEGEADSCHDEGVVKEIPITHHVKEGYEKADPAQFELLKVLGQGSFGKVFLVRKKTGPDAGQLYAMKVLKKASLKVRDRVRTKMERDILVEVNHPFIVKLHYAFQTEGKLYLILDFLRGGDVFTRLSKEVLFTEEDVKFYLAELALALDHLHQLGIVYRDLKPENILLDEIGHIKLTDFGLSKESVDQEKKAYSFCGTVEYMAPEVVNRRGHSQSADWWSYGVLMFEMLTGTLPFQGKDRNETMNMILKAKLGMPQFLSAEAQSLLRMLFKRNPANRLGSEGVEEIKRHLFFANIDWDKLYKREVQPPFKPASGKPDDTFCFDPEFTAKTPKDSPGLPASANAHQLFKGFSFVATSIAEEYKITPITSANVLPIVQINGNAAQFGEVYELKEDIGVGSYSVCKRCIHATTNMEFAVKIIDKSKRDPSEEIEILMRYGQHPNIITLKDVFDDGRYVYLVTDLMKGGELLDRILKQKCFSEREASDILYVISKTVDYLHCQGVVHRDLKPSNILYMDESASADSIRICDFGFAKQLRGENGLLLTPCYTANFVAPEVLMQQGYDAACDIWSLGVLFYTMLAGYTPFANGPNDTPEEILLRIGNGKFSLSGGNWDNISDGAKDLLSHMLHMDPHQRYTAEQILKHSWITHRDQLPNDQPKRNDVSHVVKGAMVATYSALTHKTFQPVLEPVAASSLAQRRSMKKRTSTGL", "UniProt Q02156, sequence (whole entry, looked up)": "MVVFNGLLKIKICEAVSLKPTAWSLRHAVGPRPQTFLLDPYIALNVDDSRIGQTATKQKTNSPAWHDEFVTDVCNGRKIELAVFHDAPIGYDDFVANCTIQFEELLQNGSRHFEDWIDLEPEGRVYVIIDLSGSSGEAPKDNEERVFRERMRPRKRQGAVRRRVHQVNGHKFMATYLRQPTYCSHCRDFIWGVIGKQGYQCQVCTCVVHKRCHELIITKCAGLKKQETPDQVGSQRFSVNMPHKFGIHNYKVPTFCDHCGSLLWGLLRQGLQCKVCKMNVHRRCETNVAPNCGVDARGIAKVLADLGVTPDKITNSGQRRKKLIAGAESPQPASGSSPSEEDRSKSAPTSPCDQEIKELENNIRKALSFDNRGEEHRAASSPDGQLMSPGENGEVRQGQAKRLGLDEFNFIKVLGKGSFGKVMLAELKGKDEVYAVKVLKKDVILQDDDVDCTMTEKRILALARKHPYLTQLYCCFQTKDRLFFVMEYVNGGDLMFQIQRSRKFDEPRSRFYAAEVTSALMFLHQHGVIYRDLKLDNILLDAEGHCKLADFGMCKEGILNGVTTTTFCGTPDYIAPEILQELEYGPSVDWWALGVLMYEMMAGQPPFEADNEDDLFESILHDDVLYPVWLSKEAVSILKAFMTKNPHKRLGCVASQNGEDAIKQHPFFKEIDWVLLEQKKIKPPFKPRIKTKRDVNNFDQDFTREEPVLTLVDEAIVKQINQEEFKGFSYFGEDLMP", "UniProt P28482, sequence (whole entry, looked up)": "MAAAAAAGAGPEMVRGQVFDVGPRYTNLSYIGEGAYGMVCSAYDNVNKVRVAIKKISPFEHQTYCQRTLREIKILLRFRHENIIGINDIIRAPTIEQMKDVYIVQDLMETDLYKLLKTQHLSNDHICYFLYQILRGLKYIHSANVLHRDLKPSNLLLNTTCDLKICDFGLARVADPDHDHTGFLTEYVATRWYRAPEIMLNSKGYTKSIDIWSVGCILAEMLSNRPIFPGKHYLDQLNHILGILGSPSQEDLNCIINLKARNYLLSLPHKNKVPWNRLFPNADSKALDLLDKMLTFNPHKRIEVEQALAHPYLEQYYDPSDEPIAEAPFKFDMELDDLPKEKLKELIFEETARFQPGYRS"}
{"data": "Sample 1", "Structure (SMILES)": "CC(=O)N[C@@H](Cc1c[nH]c2ccccc12)C(=O)N[C@@H](CCC(=O)C=[N+]=[N-])C(=O)OC(C)C"}
{"system": "mice, MC-38 tumour rechallenge", "conditions": "1 mg/kg, day 60 after injection", "tumour volume": "0 mm3"}
{"system": "mice, MC-38 tumour rechallenge", "conditions": "0.26 mg/kg, day 67 after injection", "tumour volume": "0 mm3"}
{"system": "mice, MC-38 tumour rechallenge", "conditions": "1 mg/kg, day 39 after injection", "tumour volume": "0 mm3"}
{"system": "C57BL/6 CES1-/- mouse, EL4 tumour", "conditions": "intravenous, 1 mg/kg DON equivalent, treatment day 14, 5 days per week", "tumour volume": "142 mm3 and 137 mm3 and 0 mm3 and 177 mm3 and 176 mm3 and 243 mm3 and 184 mm3 and 96 mm3"}
{"data": "Sample 2", "target": "Synaptic vesicular amine transporter (SLC18A2, Homo sapiens, UniProt Q05940)", "action": "inhibitor", "notes": "literature data", "UniProt Q05940, sequence (whole entry, looked up)": "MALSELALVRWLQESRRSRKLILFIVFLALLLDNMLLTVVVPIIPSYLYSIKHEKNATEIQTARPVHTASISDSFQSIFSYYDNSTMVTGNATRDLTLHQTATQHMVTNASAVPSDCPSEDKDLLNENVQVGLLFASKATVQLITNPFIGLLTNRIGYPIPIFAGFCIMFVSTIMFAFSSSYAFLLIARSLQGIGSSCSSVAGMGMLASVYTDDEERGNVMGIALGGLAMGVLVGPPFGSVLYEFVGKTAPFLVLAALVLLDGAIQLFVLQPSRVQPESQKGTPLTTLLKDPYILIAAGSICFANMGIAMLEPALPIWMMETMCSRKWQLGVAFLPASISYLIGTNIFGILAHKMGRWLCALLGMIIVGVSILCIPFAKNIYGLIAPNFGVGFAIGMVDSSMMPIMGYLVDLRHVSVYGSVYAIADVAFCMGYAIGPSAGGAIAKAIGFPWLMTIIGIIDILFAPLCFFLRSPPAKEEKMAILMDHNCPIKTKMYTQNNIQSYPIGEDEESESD"}
{"SMILES": "CCN(CC)CCNC(=O)c1cc(Cl)c(N)cc1OC", "IC50 [µM]": "> 10"}
{"SMILES": "CC(=O)c1c(C)c2cnc(Nc3ccc(N4CCNCC4)cn3)nc2n(C2CCCC2)c1=O", "IC50 [µM]": 9.2}
{"SMILES": "CN(C)C(=N)N=C(N)N", "IC50 [µM]": "> 10"}
{"SMILES": "CN[C@H]1CC[C@@H](c2ccc(Cl)c(Cl)c2)c2ccccc21", "IC50 [µM]": 1.71}
{"SMILES": "COc1cc2nccc(Oc3ccc(NC(=O)NC4CC4)c(Cl)c3)c2cc1C(N)=O", "IC50 [µM]": "> 10"}
{"SMILES": "Nc1nc2ncc(CNc3ccc(C(=O)N[C@@H](CCC(=O)O)C(=O)O)cc3)nc2c(=O)[nH]1", "IC50 [µM]": "> 10"}
{"SMILES": "CC(C)OC(=O)OCOP(=O)(CO[C@H](C)Cn1cnc2c(N)ncnc21)OCOC(=O)OC(C)C", "IC50 [µM]": "> 10"}
{"SMILES": "CN(c1nccc(=O)[nH]1)C1CCN(c2nc3ccccc3n2Cc2ccc(F)cc2)CC1", "IC50 [µM]": "> 10"}
{"SMILES": "CC(C)[C@H]1CC[C@H](C(=O)N[C@H](Cc2ccccc2)C(=O)O)CC1", "IC50 [µM]": "> 10"}
{"SMILES": "O=C(O[C@H]1CN2CCC1CC2)N1CCc2ccccc2[C@@H]1c1ccccc1", "IC50 [µM]": 5.7}
{"data": "Sample 3", "cell line": "mouse MPNST tumor cells", "technique": "high-content immunofluorescence imaging", "item": "nuclear SOX9", "tested at": "10 µM", "time": "12 h", "notes": "mean of 2 replicates", "baseline": "DMSO control", "direction": "higher = more nuclear SOX9"}
{"Compound": "Cc1cc(C)c(S(=O)(=O)n2cc(C)cc2C)c(C)c1", "nuclear SOX9 intensity": "102 % of DMSO"}
{"Compound": "CNCCN1CCC(c2cc(CN(C)C(=O)c3cccc(Oc4ccccc4)c3)ccn2)CC1", "nuclear SOX9 intensity": "178 % of DMSO and 193 % of DMSO"}
{"Compound": "CN(Cc1ccccc1)C(=O)[C@H](Cc1ccc2ccccc2c1)NC(=O)[C@@H]1CCCN1C(=O)Nc1ccccc1[N+](=O)[O-]", "nuclear SOX9 intensity": "133 % of DMSO"}
{"Compound": "C[C@H](NC(=O)CCc1ccc(F)c(F)c1)c1cncc(N2CCN(c3ccccn3)CC2)n1", "nuclear SOX9 intensity": "99.8 % of DMSO"}
{"Compound": "O=C(N1CCC(C(c2ccc3c(c2)OCO3)c2ccc3c(c2)OCO3)CC1)n1cncn1", "nuclear SOX9 intensity": "107 % of DMSO"}
{"Compound": "c1ccc(-c2oc3ncnc(NC[C@@H]4CCCO4)c3c2-c2ccccc2)cc1", "nuclear SOX9 intensity": "157 % of DMSO"}
{"Compound": "COC(=O)C1=C(C)NC(C)=C(C(=O)OC(C)C)C1c1cccc2nonc12 (stereo not drawn)", "nuclear SOX9 intensity": "105 % of DMSO and 100 % of DMSO"}
{"Compound": "CC(C)NC(=N)NC(=N)Nc1ccc(Cl)cc1", "nuclear SOX9 intensity": "88.7 % of DMSO and 93 % of DMSO"}
{"Compound": "O=C(COCC(=O)N1CCN(C(c2ccccc2)c2ccccc2)CC1)Nc1ccc(Cl)cc1C(=O)O", "nuclear SOX9 intensity": "88.8 % of DMSO"}
{"Compound": "CCCCCCCCCCC(O)C1C=CC2C(=O)N(c3ccccc3)C(=O)C2N1Nc1ccc([N+](=O)[O-])cc1 (stereo not drawn)", "nuclear SOX9 intensity": "104 % of DMSO"}
{"data": "Sample 4", "Compound": "CN1CCN(c2cnc3c(C4CCN(C(=O)c5ccc(OC(F)(F)F)cc5N)CC4)ncnc3c2)CC1", "read-out": "cell-free assay", "technique": "competition with immobilised ligand", "tested at": "1 µM"}
{"target": "PIK3C2G (Homo sapiens, UniProt O75747)", "remaining binding [%]": 100}
{"target": "PIK3CA (Homo sapiens, UniProt P42336, M1043I)", "remaining binding [%]": 100}
{"target": "TLK2 (Homo sapiens, UniProt Q86UE8)", "remaining binding [%]": 89}
{"target": "GRK1 (Homo sapiens, UniProt Q15835)", "remaining binding [%]": 96}
{"target": "DYRK2 (Homo sapiens, UniProt Q92630)", "remaining binding [%]": 100}
{"target": "MAP3K20 (Homo sapiens, UniProt Q9NYL2)", "remaining binding [%]": 98}
{"target": "TRPM6 (Homo sapiens, UniProt Q9BX84)", "remaining binding [%]": 100}
{"target": "eIF-2-alpha kinase GCN2, C-terminal kinase domain (EIF2AK4, Homo sapiens, UniProt Q9P2K8, S808G)", "remaining binding [%]": 99}
{"target": "MYLK3 (Homo sapiens, UniProt Q32MK0)", "remaining binding [%]": 82}
{"target": "PRKCE (Homo sapiens, UniProt Q02156)", "remaining binding [%]": 100}
{"target": "MAPK1 (Homo sapiens, UniProt P28482)", "remaining binding [%]": 94}
{"target": "PIP5K1C (Homo sapiens, UniProt O60331)", "remaining binding [%]": 100}
{"target": "Ribosomal protein S6 kinase alpha-6, N-terminal kinase domain (RPS6KA6, Homo sapiens, UniProt Q9UK32)", "remaining binding [%]": 100}
{"target": "FLT3 (Homo sapiens, UniProt P36888, F691L/ITD)", "remaining binding [%]": 100}
{"target": "NUAK1 (Homo sapiens, UniProt O60285)", "remaining binding [%]": 100}
{"note": "A few entries again (sample 1):"}
{"system": "mice, MC-38 tumour rechallenge", "conditions": "1 mg/kg, day 60 after injection", "tumour volume": "0 mm3"}
{"system": "mice, MC-38 tumour rechallenge", "conditions": "0.26 mg/kg, day 67 after injection", "tumour volume": "0 mm3"}
{"system": "mice, MC-38 tumour rechallenge", "conditions": "1 mg/kg, day 39 after injection", "tumour volume": "0 mm3"}
{"system": "C57BL/6 CES1-/- mouse, EL4 tumour", "conditions": "intravenous, 1 mg/kg DON equivalent, treatment day 14, 5 days per week", "tumour volume": "142 mm3 and 137 mm3 and 0 mm3 and 177 mm3 and 176 mm3 and 243 mm3 and 184 mm3 and 96 mm3"}
